Assay results from different studies.
Numbered parts are unrelated; each lists some results of a single study. Changes are numbered by the printed parent chain.

Study 1 — technique: DHFR PCA, deep sequencing; matrix: yeast; with: (+)-ABA 1.4 µM; baseline: wild-type fitted maximum; reading: higher = stronger binding; endpoint: relative binding score
Target: ABI1, truncated, D143A, DHFR fusion (Arabidopsis thaliana)
Setting: methotrexate growth selection, single substitutions
Starting sequence: PYL1, truncated, DHFR fusion (Arabidopsis thaliana); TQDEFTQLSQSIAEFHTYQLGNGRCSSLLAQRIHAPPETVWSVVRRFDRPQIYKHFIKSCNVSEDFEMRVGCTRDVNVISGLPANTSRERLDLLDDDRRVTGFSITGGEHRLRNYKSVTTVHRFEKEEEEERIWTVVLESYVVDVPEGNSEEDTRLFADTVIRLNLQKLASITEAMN; partner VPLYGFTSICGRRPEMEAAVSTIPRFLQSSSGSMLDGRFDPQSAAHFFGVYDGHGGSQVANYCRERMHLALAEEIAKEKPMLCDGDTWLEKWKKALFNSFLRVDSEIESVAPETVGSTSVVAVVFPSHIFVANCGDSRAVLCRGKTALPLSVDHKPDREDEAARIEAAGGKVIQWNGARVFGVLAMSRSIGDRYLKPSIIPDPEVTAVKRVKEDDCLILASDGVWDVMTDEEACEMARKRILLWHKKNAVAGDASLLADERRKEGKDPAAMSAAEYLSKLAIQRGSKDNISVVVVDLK
L91Y: 0.402%
E130H: 60.5%
I52Y: 26.6%
V70N: -2.37%
L169H: 3.55%
V40K: -29.2%
V44F: -23%
D75E: 77.6%
R99D: -8.5%
H55K: 72.3%
G108H: -17.6%
R163Y: -32%
T86K: 28.9%
V118N: 8.86%
E147C: 31.1%
L28K: 4.92%
R90N: -14.2%
G21A: 57%

Study 2 — technique: RNA Bind-n-Seq; molecule type: RNA; matrix: in vitro; tested at: 365 nM; baseline: no-protein control; reading: higher = stronger binding; endpoint: RBNS enrichment (R)
Target: RNA binding protein fox-1 homolog 2, RRM domain, GST-SBP tag (RBFOX2, Homo sapiens, UniProt O43251-10, residues 100-194)
Setting: natural RNA segment, single round, ends assumed
All sequences stand within: GGGAGUUCUACAGUCCGACGAUC … UGGAAUUCUCGGGUGCCAA
Construct (chain): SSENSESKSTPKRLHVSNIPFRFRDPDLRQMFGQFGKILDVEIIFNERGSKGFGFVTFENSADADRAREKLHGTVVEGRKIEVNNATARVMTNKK
CUUAAGUUGACCAGUUCUCAUAGCUCUAUCACUAGAAUGGUUUGCAGAUACCCCAAACAUACUAUGAUAAAAUCAAAUUGUGCUACUUUUGACCCAUGUAAUUUACCUAA: 0.488
CUAGAAUGAUGUACUCUACUUUCCCAAUAAGGUAGAAAUUUGGAAUCCAACGGAAUAUAAUCAGUUUUCAUUCAUUCCAGUGCCUAGUUAAAUCUAACCUGACUUAAACA: 0.659
UUUGUUUUCAUAGUUUUGCACUUUUAUAGCCUAUUUUUGAAGAUUAACACAUUUGCAAGAUGAUUGACUCAAUCUUUGCCUAAUCCAAUGAGUGUUACAGAGAGCUUGCU: 0.435
CUCAGGAUUGUAUUUAUUUUGCUUACCCCGUGCUCUUGGGUUCUAUAGUAUUUCUAUAAUUAUGUAACGAGAAUAGUGUUGCACUGUAAUCUAUCAUAUAGAGCUAUAUG: 0.279
AUCCCAAUACUGCAGGAGGGGUCUUCUCACAAAGCUCUGAGGGCUGGUCUUGACUAAGCAAUAAGAGCCUCAGAGUUGAUUGAAUUUUAAGGUCCCUUUCUGGCUUCUUG: 0.446
CAGGAUGUCUGAUGCAGAGCGGUUCUCCAUCCCUCAGUUCCAGAAAAAAUGGAGUGAUAUUUAAAAAUGCCAUCGAUGGUGGGGAUCUUACUGGGGAAGAGGAAGGACCA: 0.468
UCUAGCAGGCUGGAGUGAAGGGGGGAGAGGGCUGUGGCAGAGGUGAGGGUUUCGCUAGAACCAUUUUGUGAUUGCCACCAGCCAAGAUGGACUUUCUUCCCACCCCUUGC: 0.948
GGGCCGAUACUACGCGCUCAAGAGCAUGACGGAGGCGGAGCAGCAGCAGCUCAUCGACGACCACUUCCUCUUCGACAAGCCCGUGUCGCCCCUGCUGCUGGCCUCGGGCA: 5.22
GUAAGAAAUUGCCGUUUUUACCCUGCCCUGGCUGGCAUGUGAGAAGCCAUGGAAGGUUGUGGUUGUAAAUGAGUUGUCUAAAGGGGUGCAGAGGCCUGAGGUUUCUAAAA: 27.8
UGUAUGAAUUGCUGUGCUGCAAAGCCAAACAGCUGCAAAAUGUUGAAAAAUCAUCGAAAUGUAUAAAAAUUGCAGUAUCUUUAAAAUCAGUAAAAUGGACUAGCAUAUUA: 2.27
ACUGAGAGAAGGUGAAAUAAAGCCAUAUUUAGUAUACCAGAGAAGGUAGAUUUUAAGAAUGGUCUCAGUGUUAAUACUGAGAAAAAGUCCUGUCAGUUCAGAAAAAAUGU: 0.367
UCUGGGGGACUCCUUCCUUGAACCCUAAUAAGACCCCACUGGAGUCUCUCUCUCUCCAUCCCUCUCCUCUGCCCUCUGCUCUAAUUGCUGCCAGGAUUGUCACUCCAAAC: 0.948

Study 3 — target: CCNF, cyclin fold, Cln2 fusion (human); technique: yeast growth competition, sequencing; matrix: yeast; setting: strong parent motif; baseline: not given; reading: higher = stronger binding; endpoint: normalised enrichment score
Starting sequence: SCAPER docking peptide (human); SNARRSLNFGGST
S1W: 8.02
R4S: 3.34
F9C: 0.0665
L7W: 0.434
R4T: 3.16
R5V: 1.23
S6L: 5.45
T13Y: 7.31
R4F: 2.85
S1K: 7.27
R5A: 0.551
R5C: 0.514
S1R: 7.88
S12D: 7.61
N8H: 6.97
T13F: 7.3
T13Q: 6.77
G11I: 6.61
F9R: 1.25
S1M: 7.74
A3P: 7.63
S6V: 8.2
G10E: 7.16
A3R: 0.286
N8G: 4.07

Study 4 — technique: RNA Bind-n-Seq; molecule type: RNA; matrix: in vitro; tested at: 1 µM; setting: whole 134-nt RNA, ends assumed; with: 150 mM KCl; baseline: input library; reading: higher = stronger binding; endpoint: log2 enrichment
Target: Ras GTPase-activating protein-binding protein 1, RRM domain (G3BP1, Homo sapiens, UniProt Q13283)
Sequence of UniProt Q13283 (whole entry, looked up): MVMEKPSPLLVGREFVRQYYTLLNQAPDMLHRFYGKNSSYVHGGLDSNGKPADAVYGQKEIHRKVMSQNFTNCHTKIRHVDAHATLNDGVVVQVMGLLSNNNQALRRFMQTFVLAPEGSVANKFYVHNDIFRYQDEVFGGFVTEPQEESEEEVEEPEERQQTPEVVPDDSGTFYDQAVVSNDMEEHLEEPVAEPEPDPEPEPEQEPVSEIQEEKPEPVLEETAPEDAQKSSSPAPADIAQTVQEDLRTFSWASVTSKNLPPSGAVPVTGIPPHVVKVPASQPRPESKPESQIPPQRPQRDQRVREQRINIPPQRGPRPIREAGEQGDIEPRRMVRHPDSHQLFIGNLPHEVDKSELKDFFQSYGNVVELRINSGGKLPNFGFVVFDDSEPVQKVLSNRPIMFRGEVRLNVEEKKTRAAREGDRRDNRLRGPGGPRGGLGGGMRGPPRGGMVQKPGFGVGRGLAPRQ
All sequences stand within: GGGAGUUCUACAGUCCGACGAUC … UGGAAUUCUCGGGUGUCAAGG
AGUCCUGUGCUACACAUCGUAUGUACCGAAUCGGGGUUUUUGGUUUUUGGGUUUUUGGAAAGUAUUAUGUUACGCCGUUCGGAUCUGCAC: -0.198
UGGGCCUGGUGGCAUGCGGGGAGGAAGAGGUGGCCUCAUGGAUCGUGGUGGUCCCGGUGGAAUGUUCAGAGGUGGCCGUGGUGGAGACAG: 0.327
GUCCUGUGCUACACAUCGUAUGUACCGAAUCGGUUUUUGGGGUUUUUGGGGUUUUUGGGAAAGUAUUAUGUUACGCCGUUCGGAUCUGCA: -0.0426
GUCCUGUGCUACACAUCGUAUGUACCGAAUCAAAUUUUUAAACCCCCAAAUUUUUAAAAAAGUAUUAUGUUACGCCGUUCGGAUCUGCAC: -0.354
ACCAUGCAGGUGGGCAUCUUUGGGAAGUGGGGCAAGGGGGGGAUAGGGAGGGGGGUAACACUUUGGGAACAGGUGAUCCCAGGUCGUUUC: 0.701
GUUGUAGACACUCCUGGGAUCCUGGACCACCCUCUGGAGGAUAGGAACACCAUCGAGAUGCAGGCCAUCACUGCCCUGGCCCACCUCCGU: -0.288
UCCUGUGCUACACAUCGUAUGUACCGAAUCAAAUUUAAACCCCCCCAAACCCCCCCAAAAAAGUAUUAUGUUACGCCGUUCGGAUCUGCA: -0.218
GUAGGAAGUAAAAACAAAUGGAAAUGCUUCGGAUAGUGGCAGGGGUGGGGGUUGCUAAGGAAAGGGUGGGAUGGGAGUGGGUAAAGAGUU: 0.746
CCUGUGCUACACAUCGUAUGUACCGAAUCGGGGUUUUUUGGGUUUUUUGGGGUUUUUUGGAAAGUAUUAUGUUACGCCGUUCGGAUCUGC: -0.267
UCCUGUGCUACACAUCGUAUGUACCGAAUCGGGGAAAAAAGGGAAAAAAGGGAAAAAAGGAAAGUAUUAUGUUACGCCGUUCGGAUCUGC: 0.0757
UCCUGUGCUACACAUCGUAUGUACCGAAUCGGUUUUUUGGGUUUUUUGGGGUUUUUUGGAAAGUAUUAUGUUACGCCGUUCGGAUCUGCA: -0.177
GUCCUGUGCUACACAUCGUAUGUACCGAAUCGGGGUUUGGGGUUUUUGGGGAAAGGGGAAAGUAUUAUGUUACGCCGUUCGGAUCUGCAC: 1.46
AGUCCUGUGCUACACAUCGUAUGUACCGAAUCGGGGUUUGGGGAAAAAGGGGAGGGGAAAGUAUUAUGUUACGCCGUUCGGAUCUGCACU: 1.29
AAGUCCUGUGCUACACAUCGUAUGUACCGAAUCGGAAAAGGGGAAAAGGGAAAAGGAAAGUAUUAUGUUACGCCGUUCGGAUCUGCACUU: 0.0299

Study 5 — technique: universal PBM; molecule type: double-stranded DNA, one strand shown; matrix: in vitro; tested at: not given; reading: higher = stronger binding; endpoint: E-score
Target: Sal-like protein 4, full length isoform B (SALL4, Homo sapiens, UniProt Q9UJQ4-2, residues 1-616)
Setting: 8-mer, flanks averaged, mean of replicates
AATTGCAG: 0.123
AAAGGATT: 0.0994
ACAACAGT: -0.0524
AAATACCG: 0.0798
GTGAGAGA: -0.0423
CAAGGGCC: -0.239
GAAAATAA: 0.347
GTTAAAGA: 0.119
GAAGATCA: 0.0696
GAGTCCAC: -0.219
AATTGGCC: -0.0597
ATACCCTA: 0.148
AGCATCAA: 0.221
GGTGCGAC: -0.223
CATTTAAA: 0.149
CCCTTTCG: 0.0805
CTTTCGGC: -0.18
ACTGTACA: 0.173
ATCCCAAA: 0.0814
CCAAACCA: -0.0591
ACCTACTC: -0.0376
CGGGCAAA: -0.194
CCACTGCG: -0.202
ACAGCAGT: -0.0566
CCGATTGC: -0.0803

A few entries again (study 3):
R4F: 2.85
L7W: 0.434
N8G: 4.07
S6V: 8.2
G10E: 7.16
R5V: 1.23
S1K: 7.27
T13Y: 7.31
S1M: 7.74
R5A: 0.551
A3R: 0.286
S12D: 7.61
T13F: 7.3
N8H: 6.97
F9R: 1.25
